Results from different studies.
Parts stem from different laboratories: compare values within a part only. Substitutions count along the parent as printed.

Study 1 — target: CCNB2, cyclin fold, Cln2 fusion (human); method: yeast growth competition, sequencing; medium: yeast; setting: weak parent motif; relative to: not given; reading: higher = stronger binding; measurement: normalised enrichment score
Starting sequence: RB1 docking peptide (human); PKPLKKLRFDIEG
Substitution = PKPLKKLRFPIEG [D10P]; value = 0.383
Substitution = PKPLKKLRFIIEG [D10I]; value = -0.305
Substitution = PKPLKKGRFDIEG [L7G]; value = 0.38
Substitution = PKPLKKFRFDIEG [L7F]; value = -0.114
Substitution = FKPLKKLRFDIEG [P1F]; value = 0.34
Substitution = PKPLKKLRFDIEA [G13A]; value = 0.69
Substitution = PKPLKKLMFDIEG [R8M]; value = 0.299
Substitution = PVPLKKLRFDIEG [K2V]; value = 0.483
Substitution = PKPLKKLRFRIEG [D10R]; value = 1.02
Substitution = PFPLKKLRFDIEG [K2F]; value = 0.119
Substitution = PKPLKKMRFDIEG [L7M]; value = 0.674
Substitution = PKPNKKLRFDIEG [L4N]; value = 0.368
Substitution = PKPLYKLRFDIEG [K5Y]; value = 0.676

Study 2 — method: universal PBM; form: double-stranded DNA, one strand shown; medium: in vitro; tested at: not given; reading: higher = stronger binding; measurement: E-score
Target: Sal-like protein 4, full length isoform B (SALL4, Homo sapiens, UniProt Q9UJQ4-2, residues 1-616)
Setting: 8-mer, flanks averaged, mean of replicates
Strand = ACCGGAAC; value = -0.321
Strand = ATGTCTGG; value = 0.0593
Strand = AAGTAGTA; value = 0.204
Strand = CAGCTCAA; value = -0.0873
Strand = AGGCACGA; value = -0.102
Strand = ACGTGTGG; value = 0.00798
Strand = CTATCTGC; value = -0.199
Strand = GTTCCTTA; value = -0.0429
Strand = GAACGGCA; value = -0.0477
Strand = CCTTTGTC; value = 0.0287
Strand = AGTTGGGC; value = -0.119
Strand = CTGCAAAG; value = -0.152
Strand = CTCGCGAC; value = -0.262
Strand = CGTATCAA; value = 0.16
Strand = GAGCGAGC; value = -0.132
Strand = CGCCGTCC; value = -0.183
Strand = ATGCTGGA; value = -0.115
Strand = CGGCCCTC; value = -0.322
Strand = AGAAACCG; value = -0.282
Strand = AACTACTA; value = 0.225
Strand = CCCTCCGC; value = -0.311
Strand = AAACACAC; value = 0.0258
Strand = CTGAGTTA; value = 0.0267
Strand = CCTGTATC; value = 0.101
Strand = AACCGTCG; value = -0.13

Study 3 — target: UBE2S UBC core domain (UniProt Q16763); method: yeast two-hybrid; medium: yeast; setting: mostly zero background; relative to: not given; reading: higher = stronger interaction; measurement: lacZ reporter activity
B1: SH3RF1 RING domain (UniProt Q7Z6J0); chain DESALLDLLECPVCLERLDASAKVLPCQHTFCKRCLLGIVGSRNELRCPECRTLVGSGVEEL
B2: RBCK1 RING domain (UniProt Q9BYM8); chain SLVLNTEPAECPVCYSVLAPGEAVVLRECLHTFCRECLQGTIRNSQEAEVSCPFIDNTYSCSGKLLEREIK
B3: RFWD3 RING domain (UniProt Q6PCD5); chain ASMDEEEGDTCTICLEQWTNAGDHRLSALRCGHLFGYRCISTWLKGQVRKCPQCNKKARHSDIVV
Molecule = FDGDVDPDLKCALCHKVLEDPLTTPCGHVFCAGCVLPWVVQEGSCPARCRGRLSAKELN (PDZRN3 RING domain (UniProt Q9UPQ7)); value = 0
Molecule = KLRKLKEAMLCMVCCEEEINSTFCPCGHTVCCESCAAQLQSCPVCRSRVEHVQHVY (MYLIP RING domain (UniProt Q8WY64)); value = 0
Molecule = AMYLQENGIDCPKCKFSYALARGGCMHFHCTQCRHQFCSGCYNAFYAKNKC (RNF31 RING domain (UniProt Q96EP0)); value = 0
Molecule = GSDDEEIPFKCFICRQSFQNPVVTKCRHYFCESCALQHFRTTPRCYVCDQQTNGVFNPA (RNF113A RING domain (UniProt O15541)); value = 0
Molecule = KETIKKTTKPCPRCHVPVEKNGGCMHMKCPQPQCRLEWCWNCGCEWNRVCMG (PRKN RING domain (UniProt O60260)); value = 0
Molecule = B1 (SH3RF1 RING domain); value = 0
Molecule = B2 (RBCK1 RING domain); value = 0
Molecule = B3 (RFWD3 RING domain); value = 0
Molecule = GSRLQEINDVCAICYHEFTTSARITPCNHYFHALCLRKWLYIQDTCPMCHQKVYIEDDIK (RNF139 RING domain (UniProt Q8WU17)); value = 0
Molecule = AVPSGLEENLCKICMDSPIDCVLLECGHMVTCTKCGKRMNECPICRQYVIRAVHVF (RFFL RING domain (UniProt Q8WZ73)); value = 0

Study 4 — method: RNA Bind-n-Seq; form: RNA; medium: in vitro; tested at: 365 nM; relative to: no-protein control; reading: higher = stronger binding; measurement: RBNS enrichment (R)
Target: RNA binding protein fox-1 homolog 2, RRM domain, GST-SBP tag (RBFOX2, Homo sapiens, UniProt O43251-10, residues 100-194)
Setting: natural RNA segment, single round, ends assumed
Residues (chain): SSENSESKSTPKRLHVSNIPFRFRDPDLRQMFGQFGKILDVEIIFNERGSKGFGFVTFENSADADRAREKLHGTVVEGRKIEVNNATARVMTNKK
Strand = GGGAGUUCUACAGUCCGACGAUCGAUUCUACAUUUAUUUGUGGGUUUUUUUCCCCUCCUUUCUUUCCACAGCACUUUUGAUAUCAAGCAAGUGGCUUCCUUUUUGAGAUAUUAAAAAAAAAAAGAAAAGGAAAUGGAAUUCUCGGGUGCCAA; value = 0.677
Strand = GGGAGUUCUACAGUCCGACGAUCCUGAGUUUAGAAGACCUAUUACAAAAAGUGAAGAACUAGACUGUGGGAAAAUAAAUGGCUUUUGACUCUAUUGUGUAAGGUACUUACUGGGGAUUGGAUUAAAGUAAAUAUGGAAUUCUCGGGUGCCAA; value = 0.74
Strand = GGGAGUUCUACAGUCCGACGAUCUUGUUAAUAAACCUAACAAUGACCCUGAUAGUACAGGUUAAGUGAGAGAACUAUAUGAAUUCUAACAAGUCAUAGGUUAAUAUUUAAGACACUGAAAAAUCUAAGUGAUAUGGAAUUCUCGGGUGCCAA; value = 0.31
Strand = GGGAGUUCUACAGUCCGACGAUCUUGUUUCUUUGAUUUCUUUGCCAAUGGCAAGAAGAUGAGAUGCCCUCAGCACUGAGGAUUCUUGCCCCCUUGUGGUGCCCGCUGCCCCCAACCUUCAGGCUGCCAGAUGCUGGAAUUCUCGGGUGCCAA; value = 0.394
Strand = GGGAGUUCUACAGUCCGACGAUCACCAGAAGGGGCUGAGCCCCACCCUGGAGUGGGCUUGCACCUGGUAGGUGUGCAAGAAGCCAUUUCCCCAUAAGCACUGGCCUUUGAUGGCCCCCUCAGCCUACCUGGUGUGGAAUUCUCGGGUGCCAA; value = 0.6
Strand = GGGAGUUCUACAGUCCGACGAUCUAGACUAUGGUGUCAGUGAUUUUUGCAGAACACGUGCACAACCCUGAGGUAUGUUUAAUCUAGGCAGGUACGUUUAAGGAUAUUUUGAUCUAUUUAUAAUGAAUUCACAAUGGAAUUCUCGGGUGCCAA; value = 1.82
Strand = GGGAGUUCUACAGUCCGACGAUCUUAUAUAAUGCACAACUGUUGAUGACUGGCUGUAUAGUUUUUAGUCUCUGUAGCUAAUUUAAUUUGCUCUUCGUGUGGCAGAUCAUUCUGCCAAAAUACUUGAACACUGUUGGAAUUCUCGGGUGCCAA; value = 0.285
Strand = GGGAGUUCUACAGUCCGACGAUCGUCCUUCUUGAUUGCAGUGCAGUACUGGCAUUUCUGAAUGGAUGUAAGUGGAGUAUUUUAGUCUAAAGGCUUUUCAAAUUACUUGAAUUUUUUUAAAAAUUGAGGAGCUUUGGAAUUCUCGGGUGCCAA; value = 0.438
Strand = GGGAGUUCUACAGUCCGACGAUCCUCAGUCCUUGUAUUUCUCUUUUUCACUCUCUCUUCCACCCCAAGAUGGAAUCUUGGGGACAGGAGGGAGAGGGUUGGUAACUACUGUGAGCAAGUCCCCCAAGCCCUGAUGGAAUUCUCGGGUGCCAA; value = 0.279
Strand = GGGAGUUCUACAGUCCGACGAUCCAGAUUUAUAAUUUAUUGAAGUUCCCCUUUUAGUGAGACCAACCCAUGUUUUCCUAUUCAUCUUAGUUCAUUUAGGGAUAGUCUGGGUUUCCCAGAAAAUGUGGAGCCAGUGGAAUUCUCGGGUGCCAA; value = 0.352
Strand = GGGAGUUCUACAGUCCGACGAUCGCCUCAUUAGGCCCAGACUGCUGCUGCUGGUACCAGUCUCCUGAGACACUGCCUCCCUGGAGCCCAUGCAUGCCCAGCUGUUCUUACUGCUUAGUAGCCUUGAAGCAGCAUGGAAUUCUCGGGUGCCAA; value = 10.6
Strand = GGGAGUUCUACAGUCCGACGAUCCCUGCUGAGGGACCCUUCAACUGGCCAGAGCCUGGAUCAAUUUCAUGUUGAUCAGUCAGAGGAACUGAGAAAGCCACUAGAUCCAAGCUUAGUCCCAAGAAGAGGGUGAAUGGAAUUCUCGGGUGCCAA; value = 0.807

Study 5 — method: DHFR PCA, deep sequencing; medium: yeast; together with: (+)-ABA 17 µM; relative to: wild-type fitted maximum; reading: higher = stronger binding; measurement: relative binding score
Target: ABI1, truncated, D143A, DHFR fusion (Arabidopsis thaliana)
Setting: methotrexate growth selection, single substitutions
Starting sequence: PYL1, truncated, DHFR fusion (Arabidopsis thaliana); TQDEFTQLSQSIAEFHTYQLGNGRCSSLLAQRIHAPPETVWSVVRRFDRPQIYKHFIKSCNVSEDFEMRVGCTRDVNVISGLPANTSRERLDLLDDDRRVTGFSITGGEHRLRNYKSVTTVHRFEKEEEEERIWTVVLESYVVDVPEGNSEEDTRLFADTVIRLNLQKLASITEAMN
Substitution = R98F; value = 33.1%
Substitution = V136F; value = 70.5%
Substitution = S27R; value = 43.6%
Substitution = D96H; value = 17%
Substitution = D97M; value = 80.1%
Substitution = Y141F; value = 40.9%
Substitution = R163M; value = 53.7%
Substitution = T173E; value = -10.1%
Substitution = I57Y; value = 15.3%
Substitution = T106H; value = 57.9%

Excerpt of the above (study 5):
Substitution = Y141F; value = 40.9%
Substitution = R98F; value = 33.1%
Substitution = R163M; value = 53.7%
Substitution = T106H; value = 57.9%
Substitution = I57Y; value = 15.3%
Substitution = V136F; value = 70.5%
